Experimental data of several laboratories.
A part holds a random share of what one study measured.

Set 1 — method: protein-binding microarray; form: double-stranded DNA, one strand shown; sample: in vitro; concentration: 0.8 µM; notes: whole 60-bp probe, no competitor; reading: higher = stronger binding; endpoint: fluorescence intensity; shared flanks, not repeated: … GTCTTGATTCGCTTGACGCTGCTG
Target: Centromere-binding protein 1, full length, N-terminal tag (CBF1, Saccharomyces cerevisiae, UniProt P17106, residues 1-351)
UniProt P17106, sequence (whole entry, looked up): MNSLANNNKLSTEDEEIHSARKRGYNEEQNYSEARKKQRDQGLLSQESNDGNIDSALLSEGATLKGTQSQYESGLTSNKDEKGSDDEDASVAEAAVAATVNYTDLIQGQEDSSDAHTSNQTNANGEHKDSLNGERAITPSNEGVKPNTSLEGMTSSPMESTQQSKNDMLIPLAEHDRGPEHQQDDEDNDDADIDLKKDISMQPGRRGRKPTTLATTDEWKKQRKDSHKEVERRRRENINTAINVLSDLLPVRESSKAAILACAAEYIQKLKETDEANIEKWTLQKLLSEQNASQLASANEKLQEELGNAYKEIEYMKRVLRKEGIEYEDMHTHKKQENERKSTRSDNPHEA
Sequence = CTATTTTTTCAGCATCACGAAGAAAAAAAGCTTTTC; result = 587 a.u.
Sequence = CTAAATGTCAATAATCACACGTCGTTATAAGCATTC; result = 574 a.u.
Sequence = TGTACGAAGCTATCGTACGTGAATATAGTAGTTAGG; result = 496 a.u.
Sequence = CTATTATTCATTGATGGTGTGATTCTTCGAAACTTC; result = 573 a.u.
Sequence = CTAGTGGGAAGGTATCATCACGTAAACTAAAACTTC; result = 512 a.u.
Sequence = GAAAAATCGTGCAAGAACGTGAGGATCTGTATATAG; result = 589 a.u.

Set 2 — method: aptamer microarray, sandwich; form: DNA with 2'F-ANA; sample: in vitro; concentration: 200 nM; with: Cy3 exosite-II aptamer, 400 nM; reading: higher = stronger binding; endpoint: mean fluorescence intensity; sequence: GGTTGGTGTGGTTGG
Target: Prothrombin, mature alpha-thrombin (F2, Homo sapiens, UniProt P00734)
Notes: whole 15-mer aptamer, many near background
Modification = 2'F-ANA at 1 2 4 6 11 13 15; result = 69.2 a.u.
Modification = 2'F-ANA at 1 4 6 8 12 13 14; result = 56.8 a.u.
Modification = 2'F-ANA at 1 3 4 6 7 8 9 10 11 13 14 15; result = 57.7 a.u.
Modification = 2'F-ANA at 1 5 7 9 10 11 12 13; result = 48.4 a.u.
Modification = 2'F-ANA at 3 4 6 7 11 12 13 15; result = 551 a.u.
Modification = 2'F-ANA at 1 8 9 10 12 14; result = 48.2 a.u.
Modification = 2'F-ANA at 1 2 3 4 8 10 11 13 15; result = 84.2 a.u.
Modification = 2'F-ANA at 2 3 6 9 10 11; result = 276 a.u.

Set 3 — method: protein binding microarray; form: double-stranded DNA, one strand shown; sample: in vitro; concentration: not given; relative to: not given; reading: higher = stronger binding; endpoint: E-score
Target: Histone acetyltransferase KAT6A, winged helix 1, GST fusion (KAT6A, Homo sapiens, UniProt Q92794, residues 1-85)
Notes: 8-mer, flanks averaged, mean of 2 arrays, mostly near background
Residues (chain): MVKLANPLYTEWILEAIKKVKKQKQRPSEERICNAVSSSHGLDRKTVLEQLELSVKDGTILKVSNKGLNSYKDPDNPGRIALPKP
Sequence = ATGAAGTG; result = -0.0318
Sequence = ACACGAGA; result = -0.115
Sequence = GCGTGCCC; result = 0.193
Sequence = CGACGACC; result = 0.0151
Sequence = GTTAGCGA; result = 0.0129

Mixed results
Molecule = PhoQ, residues 284 288 289 292 302 303 STVVAA; target = PhoP, residues 12 14 15 18 19 QYCSL (Escherichia coli, UniProt P23836); assay = Sort-seq, item: YFP reporter; system = E. coli; setting = PhoQ-PhoP variant library, with: 10 µM Mg2+; scale = relative to: high Mg2+ state, higher = stronger signaling; endpoint = fold induction; result = 5.89

Some of these lines once more (set 3):
Sequence = ATGAAGTG; result = -0.0318
